# Measurements collected from several papers.
# Each numbered part is a random draw from the data of one study; scales do not carry over between parts. Changes are numbered by the printed parent chain.

# Set 1
# Target: CCNF, cyclin fold, Cln2 fusion (human)
# Technique: yeast growth competition, sequencing
# Matrix: yeast
# Setting: strong parent motif
# Relative to: not given
# Direction: higher = stronger binding
# Starting sequence: SLBP docking peptide (human); ARYKRKLLINDFG
Variant,normalised enrichment score
ARYKRKLHINDFG [L8H],1.21
ARYKRKLLINAFG [D11A],2.5
ARIKRKLLINDFG [Y3I],2.08
ARYKRKQLINDFG [L7Q],1.24
ARYKRKLLINDSG [F12S],0.841
ARYKRKDLINDFG [L7D],1.23
ATYKRKLLINDFG [R2T],2.71
ARYARKLLINDFG [K4A],1.63
ARNKRKLLINDFG [Y3N],1.06
ARYKRKLLICDFG [N10C],1.76
ARYKRKTLINDFG [L7T],0.849
ERYKRKLLINDFG [A1E],0.539
ARYKRKLLINDFP [G13P],2.02
ARYKRKLLQNDFG [I9Q],1.14
ASYKRKLLINDFG [R2S],0.355
ARYKRKKLINDFG [L7K],0.284
AHYKRKLLINDFG [R2H],1.37
ARYKRKLLINDEG [F12E],1.2
ARYKRKLLINDVG [F12V],1.05
ARCKRKLLINDFG [Y3C],3.6

# Set 2
# Target: Interferon regulatory factor 3, full length, phosphomimetic (IRF3, Homo sapiens, UniProt Q14653, residues 1-427, S386D/S396D/S398D/S402D/T404D/S405D)
# Technique: protein-binding microarray
# Form: double-stranded DNA, one strand shown
# Matrix: in vitro
# Concentration: 2540 nM top
# Setting: 60-bp whole probe
# Added: salmon DNA 0.4 mg/ml
# Relative to: random background probes
# Direction: higher = stronger binding
# Shared flanks, not repeated: GCCTAGCAC … GTCTTGATTCGCTTGACGCTGCTG
# Construct (chain): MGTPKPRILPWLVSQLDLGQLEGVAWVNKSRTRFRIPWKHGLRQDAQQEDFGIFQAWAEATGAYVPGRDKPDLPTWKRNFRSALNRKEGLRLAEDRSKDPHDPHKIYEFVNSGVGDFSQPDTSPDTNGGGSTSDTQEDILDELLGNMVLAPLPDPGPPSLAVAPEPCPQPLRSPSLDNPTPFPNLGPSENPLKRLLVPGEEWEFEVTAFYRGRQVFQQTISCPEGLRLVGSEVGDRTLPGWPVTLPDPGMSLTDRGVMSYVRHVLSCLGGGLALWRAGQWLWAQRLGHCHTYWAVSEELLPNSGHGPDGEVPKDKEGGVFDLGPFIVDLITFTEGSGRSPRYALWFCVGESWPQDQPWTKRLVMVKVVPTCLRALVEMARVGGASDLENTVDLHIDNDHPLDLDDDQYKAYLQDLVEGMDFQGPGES
Sequence,fitted relative affinity [z-score]
TCATGTTTCCTCTTTCTACTGTGCTAG,3.73
GACGGACTGAACTATCGGGACGTGCTA,-0.0099
GACGGTTTCGGGTATAGGGACGTGCTA,4.23
GACGGTATCGAGTTTCGGGACGTGCTA,2.34
TTAGGTCTCGGTATGGGTTAGTGCTAG,0.242
GACGGTCTGGGGTTTCGGGACGTGCTA,0.553
GACGATTTCGGGTATCGATACGTGCTA,2.19
TTAGGTATCGACGCTGGGTTAGTGCTA,-0.422
CACGATTTCAGTTCCGAGACGTGCTAG,2.48
TTAGGTATCCTTTTCCTGTAGTGCTAG,7.98
GACGGTTTCGACTAACGGGACGTGCTA,2.64
TCATCTTGCAGTATGGAACTGTGCTAG,1.03
TTAGCTATCGGGTATCGATTAGTGCTA,0.0494
CATCATTGCCTATTTTTCCCCGTGCTA,0.49
TGAGGTTCCGGTTTCGGTTAGTGCTAG,6.97
GACGATATCGGGTATCAAGACGTGCTA,0.205
TTAGGAATGGACTTTCGGTTAGTGCTA,1.33
TTAGATCTCAGACTAGATTAGTGCTAG,0.126
TTAGATTTCAGTATCGAGTAGTGCTAG,1.82
TGAGGTTTCGGGACTGGGTTAGTGCTA,3.75

# Set 3
# Target: RNA binding protein fox-1 homolog 2, RRM domain, GST-SBP tag (RBFOX2, Homo sapiens, UniProt O43251-10, residues 100-194)
# Technique: RNA Bind-n-Seq
# Form: RNA
# Matrix: in vitro
# Concentration: 365 nM
# Setting: natural RNA segment, single round, ends assumed
# Relative to: no-protein control
# Direction: higher = stronger binding
# Shared flanks, not repeated: GGGAGUUCUACAGUCCGACGAUC … UGGAAUUCUCGGGUGCCAA
# Target sequence (chain): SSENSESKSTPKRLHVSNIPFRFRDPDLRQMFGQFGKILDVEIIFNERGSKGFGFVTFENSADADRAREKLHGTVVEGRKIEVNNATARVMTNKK
Sequence,RBNS enrichment (R)
CAAGUCUCACACUAAACAUGCCCGGGCUUCGAUGUGCCUGGAGGAUUUCCCCACAGGGACCCACGCACCUCCCUGUAUCUGCGCAGCUUGCUCGUGUGGCUGGAAGCGCU,0.225
UCUUCUACUGCUUUUCAGUUCCCUUCCCUGCUGUUCUAUUUCCUUUGAGUGUAAAGACUCACAGGUGACCUGCUAUCGAGAUAGCCAGAGGGUCAGGAGAGAAUGGGGGA,0.213
GAUUGUAAAAGAUGAUGCCGAAGAGUUGAUGUCAAUCUUUUUUUCCUAAGAAAAAAAGUCCGCGAGUAUUAAAUAUUUAGAUCAAUGUUUAUAAAAUGAUUACUUUGUAU,0.546
AAGCUGUGCGUGUGUGUGUGUGUAUGUGUGUGUGUGUAUGUGUAUCUCACACUCAUGCAUUGUCCUCUUUUUAUUUAGAUUGGCAGUGUAGGGAGUUGUGGGUAGUGGGG,1.67
GCCUGCCACCCCCUGACAAAAACAGGUUCCACAGUGCUACCCUUGCUUCCUGCCCCUUGAGGUGGGCCAGGCUGGCUCCUGGCUAUGCAGGGAUCUCUGGUCCCCAGGAG,0.385
UGGUGGGGAGGAGGGAAGCUUAACUCAAGUUUGGGUUAGUGAGUUAGCAAGCUCUUUGUGCAGAUGGGGAUGUAGGUAAAUCUUUUUAAAAGUGAAAUUAACCUCCUGCC,2.19
ACUGUGGGGAAUGAGGCAUCUUUUAGCAAGAGCUCUCACCAAUUGUAGAUUGGUGUGAAUUGCUAAGGGAAAAACCUUAUGCAGAGAAAAGUUUUUGACUGGAAAUACAC,0.435
GGCUGGUGCUGGUGCCAUGGACUCUGCCCAGAGCCUUCUUGUUUAUGAUCAGCUCCAGCUACCUGGGCAGUUGUGGUGGGGUGGAUGGGAAGGCCCACAGCCCAAGGGAU,1.15
CCAACUGUGGCAUCAAUACUGCAACUUAAACUUGACAAUCAUGGUUUGCUGGUCCUCAAACAGGCACUGAAAUCUCAGUAUGGGUAUACGAUUUAAUAAUCGGCCCCUCC,0.677
CUCCCUUGAGGGUUUCAGGGACCUUGAAAAGGGCAGGAGGACCUGCUGUCUUGCAGUUUUACCCCUGUCCACUCUCUGCCAUCCAGAAGCAAGCGUUGGUCAGUGUUGUG,0.442
CUUGGAUGGUCUCUUGUCCCUGAAUUUCAUUGUAUCAUGCAUGGAGAGAAAUGUUUGUCUUUCUGUUGUCUAUACAUCAAAGAAGCCAUUAAAUUGUUUUAUUUCUCAAG,3.54
GACAUUGGCAUUCAAAUGUCUAUAUCUUGUUACUUACAAAAUAAAAAACAGAUUAAUUAGUGGCUUUAAAUUGUAGUUAUAUCAGUGUAUAUACACGAGGGGAACUGUAU,0.343

# Set 4
# Target: UBE2H UBC core domain (UniProt P62256)
# UniProt P62256, sequence (whole entry, looked up): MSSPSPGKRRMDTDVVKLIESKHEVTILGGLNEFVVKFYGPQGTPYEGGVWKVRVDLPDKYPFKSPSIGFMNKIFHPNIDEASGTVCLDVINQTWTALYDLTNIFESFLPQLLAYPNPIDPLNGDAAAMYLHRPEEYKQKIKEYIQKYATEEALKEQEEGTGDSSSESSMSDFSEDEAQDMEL
# Technique: yeast two-hybrid
# Matrix: yeast
# Setting: mostly zero background
# Relative to: not given
# Direction: higher = stronger interaction
# B1: RNF152 RING domain (UniProt Q8N8N0); chain ETLSQDSLLECQICFNYYSPRRRPKLLDCKHTCCSVCLQQMRTSQKDVRCPWCRGVTKLPPGFS
# B2: TRIM54 RING domain (UniProt Q9BYV2); chain SMDNLEKQLICPICLEMFSKPVVILPCQHNLCRKCANDVFQASNPLWQSRGSTTVSSGGRFRCPSCRHEVVLDRHGV
# B3: DEF8 RING domain (UniProt Q6ZN54); chain AGRLGCSLTEIHTLFAKHIKLDCERCQAKGFVCELCREGDVLFPFDSHTSVCADCSAVFHRDCYYDNSTTCPKCARLSLRK
# B4: MEX3B RING domain (UniProt Q6ZN04); chain SGLRRKGSRDCSVCFESEVIAALVPCGHNLFCMECANRICEKSEPECPVCHTAVTQAIRIF
# B5: TRIM26 RING domain (UniProt Q12899); chain PLRSLEEEVTCSICLDYLRDPVTIDCGHVFCRSCTTDVRPISGSRPVCPLCKKPFKKENIRP
# B6: RNF166 RING domain (UniProt Q96A37); chain GDSGLEAQYTCPICLEVYHRPVAIGSCGHTFCGECLQPCLQVPSPLCPLCRLPFDPKKVDK
# B7: RNF2 RING domain (UniProt Q99496); chain SPRSLHSELMCPICLDMLKNTMTTKECLHRFCADCIITALRSGNKECPTCRKKLVSKRSLR
# B8: RNF183 RING domain (UniProt Q96D59); chain EQQGRELEAECPVCWNPFNNTFHTPKMLDCCHSFCVECLAHLSLVTPARRRLLCPLCRQPTVLASGQP
# B9: RNF122 RING domain (UniProt Q9H9V4); chain AKKLQLYGQTCAVCLEDFKGKDELGVLPCQHAFHRKCLVKWLEVRCVCPMCNKPIASPSEAT
# B10: MYCBP2 RING domain (UniProt O75592); chain TSLKQDADDMCMICFTEALSAAPAIQLDCSHIFHLQCCRRVLENRWLGPRITFGFISCPICKNKINHIVLKD
Molecule,lacZ reporter activity
B1 (RNF152 RING domain),0
B2 (TRIM54 RING domain),0
B3 (DEF8 RING domain),0
B4 (MEX3B RING domain),0
LDAASGHPLVCPLCHGQYERPCLLDCFHDFCTGCLRGRATDGRLSCPLCQHQTLVKGPSG (Rnf207 RING domain (UniProt Q3V3A7)),0
YCEMGSTFQLCKICAENDKDVKIEPCGHLMCTSCLTAWQESDGQGCPFCRCEIKGTEPII (CBLB RING domain (UniProt Q13191)),0
B5 (TRIM26 RING domain),0
RYRQMEERITCPICIDSHIRLVFQCGHGACAPCGSALSACPICRQPIRDRIQIF (MIB2 RING domain (UniProt Q96AX9)),0
MNDVLENELQCIICSEYFIEAVTLNCAHSFCSYCINEWMKRKIECPICRKDIKSKTYSL (RNF8 RING domain (UniProt O76064)),0
KPDKMEETLTCIICQDLLHDCVSLQPCMHTFCAACYSGWMERSSLCPTCRCPVERICKNH (CHFR RING domain (UniProt Q96EP1)),0
B6 (RNF166 RING domain),0
B7 (RNF2 RING domain),0
B8 (RNF183 RING domain),0
B9 (RNF122 RING domain),0
B10 (MYCBP2 RING domain),0

# Some of these lines once more (set 1):
Variant,normalised enrichment score
ARYKRKTLINDFG [L7T],0.849
ERYKRKLLINDFG [A1E],0.539
ARYKRKLLINDFP [G13P],2.02
ARYKRKLLQNDFG [I9Q],1.14
ASYKRKLLINDFG [R2S],0.355
ARYKRKKLINDFG [L7K],0.284
AHYKRKLLINDFG [R2H],1.37
ARYKRKLLINDEG [F12E],1.2
ARYKRKLLINDVG [F12V],1.05
